Assay results of several laboratories.
Every numbered part comes from another study and shows a few of its results, in no order.

Study 1
Target: POU, POU domain (Salpingoeca helianthica)
Method: Spec-seq
Form: double-stranded DNA, one strand shown
Sample: in vitro
Concentration: not given
Notes: whole probe, mean of replicates
Reference: not given
Direction: lower = stronger binding
Construct (chain): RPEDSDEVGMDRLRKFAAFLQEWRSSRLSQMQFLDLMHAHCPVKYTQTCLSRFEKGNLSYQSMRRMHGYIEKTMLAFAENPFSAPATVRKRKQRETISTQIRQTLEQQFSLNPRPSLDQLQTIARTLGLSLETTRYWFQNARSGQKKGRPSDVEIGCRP
Under “relative binding energy”, `GAGTCGTCTCGTCAGCACATGCTAGTCCGTAGAGCACTCAGGTC` is recorded as 1.19 ln ratio.
For `GAGTCGTCTCGTCAGCACGACGTAATCCGTAGAGCACTCAGGTC`, “relative binding energy” read 0.461 ln ratio.
`GAGTCGTCTCGTCAGCACATGCGGCGCCGTAGAGCACTCAGGTC` — result for “relative binding energy”: 1.46 ln ratio.

Study 2
Target: Sal-like protein 4, full length isoform B (SALL4, Homo sapiens, UniProt Q9UJQ4-2, residues 1-616)
Method: universal PBM
Form: double-stranded DNA, one strand shown
Sample: in vitro
Concentration: not given
Notes: 8-mer, flanks averaged, mean of replicates
Direction: higher = stronger binding
Construct (chain): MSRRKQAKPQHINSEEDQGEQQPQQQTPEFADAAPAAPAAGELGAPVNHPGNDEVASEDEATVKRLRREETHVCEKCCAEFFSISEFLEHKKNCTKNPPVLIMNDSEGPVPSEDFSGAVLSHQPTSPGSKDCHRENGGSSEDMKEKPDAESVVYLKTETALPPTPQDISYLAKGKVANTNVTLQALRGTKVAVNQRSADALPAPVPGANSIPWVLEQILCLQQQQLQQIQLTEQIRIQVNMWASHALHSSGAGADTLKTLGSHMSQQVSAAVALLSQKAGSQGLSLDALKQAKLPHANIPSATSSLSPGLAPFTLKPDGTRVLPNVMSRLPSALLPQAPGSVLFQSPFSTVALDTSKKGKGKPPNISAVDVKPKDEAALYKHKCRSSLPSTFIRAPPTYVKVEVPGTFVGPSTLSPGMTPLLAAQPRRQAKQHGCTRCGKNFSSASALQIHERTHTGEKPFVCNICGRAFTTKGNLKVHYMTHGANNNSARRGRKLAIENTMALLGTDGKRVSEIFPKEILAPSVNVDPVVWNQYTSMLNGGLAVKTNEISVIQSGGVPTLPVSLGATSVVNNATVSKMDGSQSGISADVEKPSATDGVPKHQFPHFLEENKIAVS
`AAATCCTT` gave an E-score of 0.214.
With `TGGGCTAA` the E-score was -0.0409.
For `ACTGCTCT`, the E-score was -0.0468.

Study 3
Target: Histone acetyltransferase KAT6A, both winged helices, GST fusion (KAT6A, Homo sapiens, UniProt Q92794, residues 1-181)
Method: protein binding microarray
Form: double-stranded DNA, one strand shown
Sample: in vitro
Concentration: not given
Notes: 8-mer, flanks averaged, mean of 2 arrays, mostly near background
Reference: not given
Direction: higher = stronger binding
Residues (chain): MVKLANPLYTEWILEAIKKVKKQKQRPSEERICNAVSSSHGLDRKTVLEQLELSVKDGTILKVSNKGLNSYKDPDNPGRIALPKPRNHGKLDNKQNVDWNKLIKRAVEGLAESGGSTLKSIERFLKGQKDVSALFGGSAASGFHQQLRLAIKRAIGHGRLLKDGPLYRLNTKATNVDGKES
The E-score of `AGACGGTG` is reported as 0.0202.
With `CGTGCTAC` the E-score was 0.0103.
The E-score of `ATAAAAGG` is reported as -0.18.
The E-score of `CTATCTCC` is reported as -0.217.

Further values, each from its own experiment
`PhoQ, residues 284 288 289 292 302 303 TTCLQL` gave a fold induction of 22.3 (PhoP, residues 12 14 15 18 19 NNFVT (Escherichia coli, UniProt P23836); Sort-seq, refers to: YFP reporter; E. coli; PhoQ-PhoP variant library, added: 10 µM Mg2+; reference: high Mg2+ state, higher = stronger signaling).

Some of these lines once more (study 2):
`AAATCCTT` gave an E-score of 0.214.
For `ACTGCTCT`, the E-score was -0.0468.
